Published values collected from several papers.
Lines come from different studies, so protocols differ. Numbers after ± are the reported error.

Compound	test	system	conditions	half-life
O=C(Nc1ccc(-c2noc(C3CC3)n2)c(Cl)c1)c1cccs1	chemical stability	buffer	5 µM, pH 2.0, 37 °C	0.254 ± 0.0867 h
Cc1ccc(C(C)C)cc1.[Au][S]C1=NCCS1.[Cl][Ru][Cl].c1ccc(P(CP(c2ccccc2)c2ccccc2)c2ccccc2)cc1	NMR	DMSO-d6	–	≥ 48 h
NS(=O)(=O)c1ccc(NC(=O)NN[C@@H]2O[C@H](CO)[C@@H](O)[C@H](O)[C@H]2O)cc1	–	mouse liver microsomes	1 µM	23.9 h
CCOC(=O)CCC(=O)Oc1ccc(/C=C/C(=O)/C=C(O)/C=C/c2ccc(OC(=O)CCC(=O)OCC)c(OC)c2)cc1OC	–	human plasma	1.5 µM, 37 °C	0.0808 ± 0.0158 h
Cc1ccccc1-c1cc(N2CC[N+](C)([O-])CC2)ncc1N(C)C(=O)C(C)(C)c1cc(C(F)(F)F)cc(C(F)(F)F)c1	–	healthy volunteers, plasma	oral, dose not given	33.5 to 55.9 h
CCN(CC)CC#CCNc1ccnc2cc(Cl)ccc12	–	plasma	2 µM, pH 7.4, 37 °C	> 1 h
CCC(CC)[C@H](NC(C)=O)[C@@H]1[C@H](O)[C@@H](C(=O)OCCOC(=O)[C@@H](N)C(C)C)C[C@H]1NC(=N)N	–	phosphate buffer	pH 7.4, 37 °C, chemical stability	2.97 ± 0.367 h
CC(=O)NC1C(N=C(N)N)C=C(C(=O)OC(C)OC(=O)C(N)C(C)C)OC1C(O)C(O)CO (mixture of isomers)	–	acetate buffer	pH 4, 37 °C, chemical hydrolysis	> 4 h
CC(C)(C)[C@H](NC(=O)C(F)F)C(=O)N1C[C@H]2[C@@H]([C@H]1C(=O)N[C@H](C#N)C[C@@H]1CCCNC1=O)C2(C)C	–	human liver microsomes	microsomes 0.5 mg/mL	0.758 h
COc1cc(/C=C/C(=O)/C=C/c2ccc(O)c(OC)c2)ccc1O	nano-LC-MS	serum-free RPMI 1640 medium	37 °C	~3 h
NC(=O)c1cnc2[nH]ccc2c1NC1C2CC3CC1CC(OS(=O)(=O)O)(C3)C2 (stereo not drawn)	–	Japanese adults, mild hepatic impairment, plasma	oral, 150 mg single dose	7.74 h
C[C@H](NC(=O)COC(=O)[C@H](C)NC(=O)CO)C(=O)O	–	water	pH 2, 50 °C	76.8 h
CC[C@H](C)[C@H](NC(=O)CNC(=O)CNC(=O)c1ccc2c(c1)C(=O)OC21c2ccc(O)cc2Oc2cc(O)ccc21)C(=O)N[C@@H](Cc1ccc(O)cc1)C(=O)N[C@@H](C)C(=O)N(C)CC(=O)N1CCC[C@H]1C(=O)N(C)[C@@H](Cc1ccccc1)C(=O)N[C@@H](CCCCN)C(=O)N[C@@H](CCCCN)C(=O)N[C@@H](CCCCN)C(N)=O	CE-LIF	Baf/BCR-ABL cell cytosolic lysate	1 µM, pH 7.4, 37 °C	0.535 h
[2H]C([2H])(c1ccccc1)C([2H])([2H])N1C(=O)CC(=O)N(C([2H])([2H])C([2H])([2H])c2ccccc2)C1=O	metabolic stability	mouse liver microsomes	–	0.233 h
C[C@H](N)C(=O)OCCOCn1cnc2c(=O)[nH]c(N)nc21	–	DPBS	pH 5.0, 34 °C, chemical hydrolysis	273 ± 148 h

A few entries again:
Compound	test	system	conditions	half-life
CCOC(=O)CCC(=O)Oc1ccc(/C=C/C(=O)/C=C(O)/C=C/c2ccc(OC(=O)CCC(=O)OCC)c(OC)c2)cc1OC	–	human plasma	1.5 µM, 37 °C	0.0808 ± 0.0158 h
Cc1ccccc1-c1cc(N2CC[N+](C)([O-])CC2)ncc1N(C)C(=O)C(C)(C)c1cc(C(F)(F)F)cc(C(F)(F)F)c1	–	healthy volunteers, plasma	oral, dose not given	33.5 to 55.9 h
